Measurements collected from several papers.
Each numbered part is a random draw from the data of one study; scales do not carry over between parts. Positions count from the first letter of the parent shown.

Series 1
Target: UBE2R2 UBC core domain (UniProt Q712K3)
Method: yeast two-hybrid
Medium: yeast
Setting: mostly zero background
Relative to: not given
Direction: higher = stronger interaction
B1: SH3RF2 RING domain (UniProt Q8TEC5); chain DDLTLLDLLECPVCFEKLDVTAKVLPCQHTFCKPCLQRVFKAHKELRCPECRTPVFSNIEAL
B2: RNF111 RING domain (UniProt Q6ZNA4); chain EGTEEDTEEKCTICLSILEEGEDVRRLPCMHLFHQVCVDQWLITNKKCPICRVDIEAQLPSE
B3: TRIM4 RING domain (UniProt Q9C037); chain EAEDIQEELTCPICLDYFQDPVSIECGHNFCRGCLHRNWAPGGGPFPCPECRHPSAPAALRP
B4: NEURL1 RING domain (UniProt O76050); chain VTPGLGQWSDECTICYEHAVDTVIYTCGHMCLCYACGLRLKKALHACCPICRRPIKDIIKT
B5: TRIM43 RING domain (UniProt Q96BQ3); chain FSHAFQKELTCVICLNYLVDPVTICCGHSFCRPCLCLSWEEAQSPANCPACREPSPKMDFKT
B6: TRIM5 RING domain (UniProt Q9C035); chain LREVKLSPEGQKVDHCARHGEKLLLFCQEDGKVICWLCERSQEHRGHHTFLTEEVAREYQVKL
B7: TRIM24 RING domain (UniProt O15164); chain EAARLNLLDTCAVCHQNIQSRAPKLLPCLHSFCQRCLPAPQRYLMLPAPMLGSAETPPPVPAPGSPVSGSSPFATQVGVIRCPVCSQECAERHII
Construct (chain): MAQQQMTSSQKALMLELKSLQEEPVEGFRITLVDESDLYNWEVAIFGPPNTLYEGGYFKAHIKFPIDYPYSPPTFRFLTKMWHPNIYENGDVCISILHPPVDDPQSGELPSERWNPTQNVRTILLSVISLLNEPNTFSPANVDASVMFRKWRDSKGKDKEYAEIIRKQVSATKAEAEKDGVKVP
`B1 (SH3RF2 RING domain)`: “lacZ reporter activity” 0.
Under “lacZ reporter activity”, `B2 (RNF111 RING domain)` is recorded as 0.
`B3 (TRIM4 RING domain)` — result for “lacZ reporter activity”: 0.
Under “lacZ reporter activity”, `B4 (NEURL1 RING domain)` is recorded as 0.
For `B5 (TRIM43 RING domain)`, “lacZ reporter activity” read 0.
Under “lacZ reporter activity”, `B6 (TRIM5 RING domain)` is recorded as 0.
`PAELEVQASECVVCLEREAQMIFLNCGHVCCCQQCCQPLRTCPLCRQDIAQRLRIY (LRSAM1 RING domain (UniProt Q6UWE0))`: “lacZ reporter activity” 0.
`B7 (TRIM24 RING domain)`: “lacZ reporter activity” 0.

Series 2
Target: Interferon regulatory factor 5, full length, phosphomimetic (IRF5, Homo sapiens, UniProt Q13568-2, residues 1-514, K96S/S451D/S453D/S456D/S462D)
Method: protein-binding microarray
Form: double-stranded DNA, one strand shown
Medium: in vitro
Tested at: 250 nM
Setting: 60-bp whole probe
Added: salmon DNA 0.4 mg/ml
Relative to: random background probes
Direction: higher = stronger binding
All sequences stand within: GCCTAGCAC … GTCTTGATTCGCTTGACGCTGCTG
With `AACGGACTGGGGACTGGGGACGTGCTA` the log fluorescence was -0.254 z-score.
`TCAAATGTCCTCCTCTCACTGTGCTAG` gave a log fluorescence of -0.16 z-score.
The log fluorescence of `TCCTCTCTCTTTCCACTTGTGTGCTAG` is reported as 0.692 z-score.
For `TTAGAAATGAGTTTCGATTAGTGCTAG`, the log fluorescence was 9.65 z-score.
`GACGGTTTCGAGTTTCGGGACGTGCTA` gave a log fluorescence of 7.14 z-score.
For `GACGGACTGGGGCTCGGGACGTGCTAG`, the log fluorescence was -0.562 z-score.
`TCAAGTTTGACATCTTCAACTGTGCTA` gave a log fluorescence of -0.105 z-score.
With `GACGATATCGGGTATAGAGACGTGCTA` the log fluorescence was 1.89 z-score.
`GACGATCTCAGTAGCGAGACGTGCTAG` gave a log fluorescence of 0.0302 z-score.
`GAAGGTCTCCTTCTCCTGACGTGCTAG` gave a log fluorescence of -0.25 z-score.
`AGAATCTTAGATATTAAACTGTGCTAG` has a log fluorescence of 0.523 z-score.
`TGAGGTCTCGGTATCGGTTAGTGCTAG` gave a log fluorescence of 4.79 z-score.
`TCATCAACCAGTTTTCTTACTGTGCTA` has a log fluorescence of 0.857 z-score.
The log fluorescence of `GACGGTCTCGGTCTCGGGAAGTGCTAG` is reported as 0.188 z-score.
`GCCGGACTGGGGTTTCGGGACGTGCTA` gave a log fluorescence of 1.03 z-score.
`TTGGGACTGCTACTGCTTTAGTGCTAG` gave a log fluorescence of -0.762 z-score.
With `TTAGATTTCAGATTGGATTAGTGCTAG` the log fluorescence was 0.821 z-score.
`GACGGTCTCCTTATCCTGAGGTGCTAG` has a log fluorescence of -0.311 z-score.
`GACTGTCTCCTACTGCTGACGTGCTAG` has a log fluorescence of -0.0103 z-score.
`CTCCCTTGAGGTTTTCTCTGGGTGCTA` gave a log fluorescence of -0.434 z-score.
The log fluorescence of `GAAGATTTCAGTCTCGAGACGTGCTAG` is reported as 1.32 z-score.
`GTAGGTTTCGGGTTTCGGTTAGTGCTA` has a log fluorescence of 9.76 z-score.
The log fluorescence of `CACGGTCTCCTTATCCTGACGTGCTAG` is reported as -0.19 z-score.

Series 3
Target: RNA binding protein fox-1 homolog 2, RRM domain, GST-SBP tag (RBFOX2, Homo sapiens, UniProt O43251-10, residues 100-194)
Method: RNA Bind-n-Seq
Form: RNA
Medium: in vitro
Tested at: 365 nM
Setting: natural RNA segment, single round, ends assumed
Relative to: no-protein control
Direction: higher = stronger binding
Target sequence (chain): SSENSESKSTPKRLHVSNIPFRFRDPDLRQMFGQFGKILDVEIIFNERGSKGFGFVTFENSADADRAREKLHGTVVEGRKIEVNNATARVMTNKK
Under “RBNS enrichment (R)”, `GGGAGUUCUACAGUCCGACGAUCAGAGAACUGAUUUCCUAGCAUUCUUCCCUAGUAAAAUCUUUCCCAAUAGAACAGUAUGUUCCCUUAAACCCAAAUGAACAUCACGCUACUUUCUUUUACCUGUGGCAAAGUGGAAUUCUCGGGUGCCAA` is recorded as 0.469.
`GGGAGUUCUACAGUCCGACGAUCCUCACAGGUUUUCAUUCUUUUGAACUCUGGUGCACUCCAUCUGUAAUCCAUGUCUAUAAUCUACCAACAAAGAUGUACUCUUAAACUCAGUAUCACCAGGCACUAUAUUUUGGAAUUCUCGGGUGCCAA` — result for “RBNS enrichment (R)”: 0.216.
For `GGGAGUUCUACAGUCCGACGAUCAUUGGUGUUGAUGAUUUUGAGCUUGAAUGUUUUCAUACCUGAUUAAAACUUGGUUUAUUCUAAUUUCUGUAUCAUAUCAUCUGAGGUUUACGUGGUAACUAGUCUUAUAAUGGAAUUCUCGGGUGCCAA`, “RBNS enrichment (R)” read 0.879.
For `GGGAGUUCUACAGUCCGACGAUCUAAGAAGCCAUUUCCACUACAGUGAGAAAGCCCGGAUCCCAACAGUUGUCAAAUUGAUUAGUUUGCCUAAUUCAUGUUUUCACUUAAAAGUAUCAGAGGUGAAUGCACAGUGGAAUUCUCGGGUGCCAA`, “RBNS enrichment (R)” read 1.01.
For `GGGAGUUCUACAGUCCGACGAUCACCCACUUUAUUCAGUUCUGUACAUAUGGGGACAUCGGUCCAAGCCCAACCCACCUUAGCAUGUAUCACUCUGUGGAGAAUAAAGCACCCUAUGUACACAGCCAAAAGCCUGGAAUUCUCGGGUGCCAA`, “RBNS enrichment (R)” read 26.3.
`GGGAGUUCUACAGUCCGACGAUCUCACUGUUGUUUGUAUUUAUGAAAUUCUGAAAUUAUGGGGAAUCAGCGUAAUGAUUAAGUUAUUCAUCACCAGGCUGUAAGCAAUAUCUUGAGUUUGUAGCUUAGAAUUGUGGAAUUCUCGGGUGCCAA` — result for “RBNS enrichment (R)”: 0.399.
Under “RBNS enrichment (R)”, `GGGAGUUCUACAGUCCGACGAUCAUUUAUUUCUGUUUGAAUUUGAAACAGUGUUAUGCUUACAAGACUUCAUAAUGAUUUUAUGUCUUGCUUUAAAGAUAGUACCUGCAGAAUAGUUUUUGAAUACACCCACAUGGAAUUCUCGGGUGCCAA` is recorded as 0.921.
Under “RBNS enrichment (R)”, `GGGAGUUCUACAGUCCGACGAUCUGGGAAUGUCCCCUGCCCCAACCAUCGGGUGGAGCUCCUGCUGGGCUAUGGGGAAGGGAGGUUGUGCGGAUCUUGACUCUAGGGCAGAACAGAUCUAACCAUGCAUUGCUUGGAAUUCUCGGGUGCCAA` is recorded as 1.91.
`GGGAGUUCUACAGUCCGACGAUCAGAUGGCCUCCCUGCUCUUCUGGCCCCCAUGUCAUAGUUAAAACUGACAAGGAUUUGAAAAAGACUGGCGAGGGAACGUGUCUGCUUAGCCGAGACUCCCAUACCUACUAUGGAAUUCUCGGGUGCCAA`: “RBNS enrichment (R)” 0.31.
Under “RBNS enrichment (R)”, `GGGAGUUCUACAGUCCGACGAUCGGGGAUUUAGACUGAUGUGUGCAUUGGCUGAGCUGAACCUUGGUCUCUUGAUGUCCCUGGAGAGCUGAGGUCGAGACCCCAUUCAUGCAGGAGGAGGAAGAAGGAAGUGUUGGAAUUCUCGGGUGCCAA` is recorded as 1.2.
`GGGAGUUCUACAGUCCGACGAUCGACCCAUGCUGGUGGAGAACAGACGUCAAUCAUUCCCGUCCAUCAGGUUAUUGAUAAGGUCAAGGGUUACUGUAAUGCCCAUUCCGAUAACUUCUAUAAAAAUAUCAUCCUGGAAUUCUCGGGUGCCAA` — result for “RBNS enrichment (R)”: 0.365.
`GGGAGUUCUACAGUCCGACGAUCAUUUAGGUGUGGGCUGAUUGGACUCCAACAUCUUUUGUACUCUUUUCAUGCUUUAUGUUAUGUAGAAUUUGAGUUCAUGCUGAAUGCAUUCCAGCCAGUAAUUUAUAGCCUGGAAUUCUCGGGUGCCAA`: “RBNS enrichment (R)” 0.731.

Series 4
Target: Histone acetyltransferase KAT6A, both winged helices, GST fusion (KAT6A, Homo sapiens, UniProt Q92794, residues 1-181)
Method: protein binding microarray
Form: double-stranded DNA, one strand shown
Medium: in vitro
Tested at: not given
Setting: 8-mer, flanks averaged, mean of 2 arrays, mostly near background
Relative to: not given
Direction: higher = stronger binding
Residues (chain): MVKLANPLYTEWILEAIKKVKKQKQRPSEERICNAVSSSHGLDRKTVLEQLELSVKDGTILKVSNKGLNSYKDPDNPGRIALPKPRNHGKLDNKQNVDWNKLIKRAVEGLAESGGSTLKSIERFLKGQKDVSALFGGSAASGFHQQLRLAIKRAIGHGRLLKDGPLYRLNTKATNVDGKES
`ACATCTAT` gave an E-score of 0.0355.
For `ACAACTGA`, the E-score was 0.0325.
For `AATTACGG`, the E-score was 0.126.
`GCGCAAGA` gave an E-score of 0.253.
`CATTCCGC` gave an E-score of 0.173.
The E-score of `CCTCGAAC` is reported as -0.104.
The E-score of `ACCCCGAC` is reported as 0.185.
`AGTAACGG` gave an E-score of 0.145.
For `ATCTTAAA`, the E-score was -0.0238.
For `CCAAAGGG`, the E-score was -0.254.
With `CCAGAAAC` the E-score was -0.124.
With `AATAAAAT` the E-score was -0.0518.
With `GTAGCCAC` the E-score was -0.125.

Series 5
Target: CCNA1, cyclin fold, Cln2 fusion (human)
Method: yeast growth competition, sequencing
Medium: yeast
Setting: weak parent motif
Relative to: not given
Direction: higher = stronger binding
Parent: CDKN1B docking peptide (human); PSACRNLFGPVDH
`L7K` — result for “normalised enrichment score”: 0.319.
Under “normalised enrichment score”, `D12T` is recorded as 0.415.
Under “normalised enrichment score”, `H13Q` is recorded as 0.51.
`S2H`: “normalised enrichment score” 0.383.
`A3T`: “normalised enrichment score” 0.205.
For `A3I`, “normalised enrichment score” read 0.301.
`R5V` — result for “normalised enrichment score”: 0.137.
`F8M`: “normalised enrichment score” 0.291.
For `C4T`, “normalised enrichment score” read -0.00595.
Under “normalised enrichment score”, `P1H` is recorded as 0.321.
For `D12R`, “normalised enrichment score” read 0.366.
`F8P`: “normalised enrichment score” 0.15.
For `V11N`, “normalised enrichment score” read 0.384.

Repeated from above (series 5):
`R5V` — result for “normalised enrichment score”: 0.137.
`F8M`: “normalised enrichment score” 0.291.
For `C4T`, “normalised enrichment score” read -0.00595.
Under “normalised enrichment score”, `P1H` is recorded as 0.321.
For `D12R`, “normalised enrichment score” read 0.366.
